{"data": "Measurements pooled from the literature", "method": "steady-state kinetics", "B1": "STH1425 (Symbiobacterium thermophilum, UniProt Q67PI3); chain MDKLRVAVVGYGNVGRYALEAVQAAPDMELVGVVRRKVLAATPPELTGVRVVTDISQLEGVQGALLCVPTRSVPEYAEAMLRRGIHTVDSYDIHGDLADLRRRLDPVAREHGAAAVISAGWDPGTDSIIRALLEFMAPKGITYTNFGPGMSMGHSVAVKAIPGVRDALSMTIPAGMGVHKRAVYVELEPGADFAEVERAIKTDPYFVRDETRVTQVESVSALMDVGHGVVMERKGVSGATHNQLFRFEMRINNPALTAQVMVAALRAAARQKPGCYTMIEIPVIDYLPGDREAWIRKLV", "B2": "enzyme F187A (Thermococcus kodakarensis, UniProt Q5JID5); chain MLYVEILGNLPEMARDEVKAMLELGGGEIIGQDYLFLKVDAGEKAFPFLDRLGLAHEYGLLLVEADSVEELLQKAGEVEWPIKGAFKVDTETMANCRHDVLDLPRKLGAVIHAQGFRVNLSKPDTVVRVYCGERLYAGIRLRYFDPKDFEKRKAHHRPFFRPISLHPRVSRALVNLTKATREILDPAMGAGGILIEAGLLGLRVYGVDIRPEMVEGAETNLKHYGVRDYTLKLGDATRLEDLFPDKKFEAVATDPPYGTAATLAGRKRDELYRKALRSIYNVLEDGGRLAIAFPTDFNGKAEAEAVGFRTLGRYYQRVHKSLERYFYVFEK", "B3": "BshA S17A (Bacillus subtilis, UniProt P42982); chain MRKLKIGITCYPSVGGAGIIATELGKQLAEKGHEIHFITSSIPFRLNTYHPNIHFHEVEVNQYAVFKYPPYDLTLASKIAEVAERENLDIIHAHYALPHAVCAYLAKQMLKRNIGIVTTLHGTDITVLGYDPSLKDLIRFAIESSDRVTAVSSALAAETYDLIKPEKKIETIYNFIDERVYLKKNTAAIKEKHGILPDEKVVIHVSNFRKVKRVQDVIRVFRNIAGKTKAKLLLVGDGPEKSTACELIRKYGLEDQVLMLGNQDRVEDLYSISDLKLLLSEKESFGLVLLEAMACGVPCIGTNIGGIPEVIKNNVSGFLVDVGDVTAATARAMSILEDEQLSNRFTKAAIEMLENEFSSKKIVSQYEQIYADLAEPE", "B4": "UCK2 (Homo sapiens, UniProt Q9BZX2); chain MAGDSEQTLQNHQQPNGGEPFLIGVSGGTASGKSSVCAKIVQLLGQNEVDYRQKQVVILSQDSFYRVLTSEQKAKALKGQFNFDHPDAFDNELILKTLKEITEGKTVQIPVYDFVSHSRKEETVTVYPADVVLFEGILAFYSQEVRDLFQMKLFVDTDADTRLSRRVLRDISERGRDLEQILSQYITFVKPAFEEFCLPTKKYADVIIPRGADNLVAINLIVQHIQDILNGGPSKRQTNGCLNGYTPSRKRQASESSSRPH", "B5": "enzyme R116A (Acetivibrio thermocellus, UniProt A3DJ38); chain MKLTIPELSLVVLIGSSGSGKSTFAKKHFKPTEVISSDFCRGLVSDDENDQTVTGAAFDVLHYIVSKRLQLGKLTVVDATNVQESARKPLIEIAKDYHCFPVAVVFNLPEKVCQEANKNRTDRQVEEYVIRKHTQQLKKSIKGLQREGFRYVYILNSPEEVEEVVFERQP", "B6": "Mj-MAT W387F/Y233W (Methanocaldococcus jannaschii, UniProt Q58605); chain MRNIIVKKLDVEPIEERPTEIVERKGLGHPDSICDGIAESVSRALCKMYMEKFGTILHHNTDQVELVGGHAYPKFGGGVMVSPIYILLSGRATMEILDKEKNEVIKLPVGTTAVKAAKEYLKKVLRNVDVDKDVIIDCRIGQGSMDLVDVFERQKNEVPLANDTSFGVGYAPLSTTERLVLETERFLNSDELKNEIPAVGEDIKVMGLREGKKITLTIAMAVVDRYVKNIEEWKEVIEKVRKKVEDLAKKIADGYEVEIHINTADDYERESVYLTVTGTSAEMGDDGSVGRGNRVNGLITPFRPMSMEAASGKNPVNHVGKIYNILANLIANDIAKLEGVKECYVRILSQIGKPINEPKALDIEIITEDSYDIKDIEPKAKEIANKFLDNIMEVQKMIVEGKVTTF", "B7": "MauG (Paracoccus denitrificans, UniProt Q51658); chain EQARPADDALAALGAQLFVDPALSRNATQSCATCHDPARAFTDPREGKAGLAVSVGDDGQSHGDRNTPTLGYAALVPAFHRDANGKYKGGQFWDGRADDLKQQAGQPMLNPVEMAMPDRAAVAARLRDDPAYRTGFEALFGKGVLDDPERAFDAAAEALAAYQATGEFSPFDSKYDRVMRGEEKFTPLEEFGYTVFITWNCRLCHMQRKQGVAERETFTNFEYHNIGLPVNETAREASGLGADHVDHGLLARPGIEDPAQSGRFKVPSLRNVAVTGPYMHNGVFTDLRTAILFYNKYTSRRPEAKINPETGAPWGEPEVARNLSLAELQSGLMLDDGRVDALVAFLETLTDRRYEPLLEESRAAQKD", "B8": "Mgst1 unactivated (Rattus norvegicus, UniProt P08011); chain ADLKQLMDNEVLMAFTSYATIILAKMMFLSSATAFQRLTNKVFANPEDCAGFGKGENAKKFLRTDEKVERVRRAHLNDLENIVPFLGIGLLYSLSGPDLSTALIHFRIFVGARIYHTIAYLTPLPQPNRGLAFFVGYGVTLSMAYRLLRSRLYL", "B9": "carbamoyl phosphate synthetase large subunit M378E (Escherichia coli, UniProt P00968); chain PKRTDIKSILILGAGPIVIGQACEFDYSGAQACKALREEGYRVILVNSNPATIMTDPEMADATYIEPIHWEVVRKIIEKERPDAVLPTMGGQTALNCALELERQGVLEEFGVTMIGATADAIDKAEDRRRFDVAMKKIGLETARSGIAHTMEEALAVAADVGFPCIIRPSFTMGGSGGGIAYNREEFEEICARGLDLSPTKELLIDESLIGWKEYEMEVVRDKNDNCIIVCSIENFDAMGIHTGDSITVAPAQTLTDKEYQIMRNASMAVLREIGVETGGSNVQFAVNPKNGRLIVIEMNPRVSRSSALASKATGFPIAKVAAKLAVGYTLDELMNDITGGRTPASFEPSIDYVVTKIPRFNFEKFAGANDRLTTQEKSVGEVMAIGRTQQESLQKALRGLEVGATGFDPKVSLDDPEALTKIRRELKDAGADRIWYIADAFRAGLSVDGVFNLTNIDRWFLVQIEELVRLEEKVAEVGITGLNADFLRQLKRKGFADARLAKLAGVREAEIRKLRDQYDLHPVYKRVDTCAAEFATDTAYMYSTYEEECEANPSTDREKIMVLGGGPNRIGQGIEFDYCCVHASLALREDGYETIMVNCNPETVSTDYDTSDRLYFEPVTLEDVLEIVRIEKPKGVIVQYGGQTPLKLARALEAAGVPVIGTSPDAIDRAEDRERFQHAVERLKLKQPANATVTAIEMAVEKAKEIGYPLVVRPSYVLGGRAMEIVYDEADLRRYFQTAVSVSNDAPVLLDHFLDDAVEVDVDAICDGEMVLIGGIMEHIEQAGVHSGDSACSLPAYTLSQEIQDVMRQQVQKLAFELQVRGLMNVQFAVKNNEVYLIEVNPRAARTVPFVSKATGVPLAKVAARVMAGKSLAEQGVTKEVIPPYYSVKEVVLPFNKFPGVDPLLGPEMRSTGEVMGVGRTFAEAFAKAQLGSNSTMKKHGRALLSVREGDKERVVDLAAKLLKQGFELDATHGTAIVLGEAGINPRLVNKVHEGRPHIQDRIKNGEYTYIINTTSGRRAIEDSRVIRRSALQYKVHYDTTLNGGFATAMALNADATEKVISVQEMHAQIK", "B10": "enzyme (Bacillus pumilus, UniProt A8FFI9); chain EARSIAWSVDEFFKNREGTFVIQEVKEKSPWVYNKKRAKERFAPQSTFKVANALIGLQTGAVRDEYDIKYWDGVKREIDNWNRDHTLGSGMRDSVVWYYQAMARDIGEERMNHWVKAIHYGNKDISGGIDQFWLSSTLRISPIEQVRFLKQLYEETLPFDLKNMRTVKRMMVQEEEKHATLYGKTGSGSDIGWYVGFIKHEHKTYILATNIKGTGIEAKDITYRILKKYHLMEASV", "note": "Compare with care: the assays were run in different laboratories. Numbers after ± are the reported error.", "sequence of UniProt Q9NZ08 (whole entry, looked up)": "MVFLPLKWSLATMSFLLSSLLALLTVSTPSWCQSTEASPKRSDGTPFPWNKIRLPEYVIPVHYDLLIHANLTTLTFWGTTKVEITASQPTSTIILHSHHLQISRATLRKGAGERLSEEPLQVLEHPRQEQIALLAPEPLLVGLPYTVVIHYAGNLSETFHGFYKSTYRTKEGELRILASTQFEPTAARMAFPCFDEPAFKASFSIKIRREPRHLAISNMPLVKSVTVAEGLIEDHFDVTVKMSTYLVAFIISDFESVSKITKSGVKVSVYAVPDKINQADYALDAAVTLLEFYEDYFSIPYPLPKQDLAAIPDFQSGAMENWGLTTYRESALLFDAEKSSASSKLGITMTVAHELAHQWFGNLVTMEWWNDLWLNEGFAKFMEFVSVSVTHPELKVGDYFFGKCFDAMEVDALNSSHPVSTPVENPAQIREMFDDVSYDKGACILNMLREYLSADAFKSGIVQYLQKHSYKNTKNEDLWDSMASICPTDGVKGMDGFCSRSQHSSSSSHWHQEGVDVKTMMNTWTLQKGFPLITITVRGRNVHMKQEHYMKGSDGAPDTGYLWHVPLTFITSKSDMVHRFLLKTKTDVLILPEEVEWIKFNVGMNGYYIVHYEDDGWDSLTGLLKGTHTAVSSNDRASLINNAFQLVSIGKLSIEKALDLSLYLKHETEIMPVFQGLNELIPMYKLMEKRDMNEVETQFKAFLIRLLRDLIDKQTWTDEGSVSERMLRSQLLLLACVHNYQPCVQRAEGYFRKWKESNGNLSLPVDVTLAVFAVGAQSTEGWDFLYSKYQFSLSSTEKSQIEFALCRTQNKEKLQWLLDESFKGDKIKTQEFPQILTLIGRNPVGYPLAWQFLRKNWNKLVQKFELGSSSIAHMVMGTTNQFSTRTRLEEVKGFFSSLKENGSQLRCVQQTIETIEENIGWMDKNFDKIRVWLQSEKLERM", "sequence of UniProt Q8KN33 (whole entry, looked up)": "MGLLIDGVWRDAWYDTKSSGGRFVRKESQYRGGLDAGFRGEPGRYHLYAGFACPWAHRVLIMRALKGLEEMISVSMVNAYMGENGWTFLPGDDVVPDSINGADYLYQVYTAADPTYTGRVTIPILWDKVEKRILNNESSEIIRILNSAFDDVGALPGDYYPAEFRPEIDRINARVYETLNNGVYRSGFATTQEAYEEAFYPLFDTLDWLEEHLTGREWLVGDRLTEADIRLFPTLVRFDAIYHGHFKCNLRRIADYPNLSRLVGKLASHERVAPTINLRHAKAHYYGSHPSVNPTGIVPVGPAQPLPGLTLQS"}
{"Substance": "B1 (STH1425)", "substrate": "O=C(O)C(=O)Cc1ccccc1", "conditions": "pH 9, 30 °C, reductive amination, together with: NH4Cl 200 mM, NADPH 0.5 mM", "kcat [s⁻¹]": "0.13 ± 0.03"}
{"Substance": "B2 (enzyme F187A)", "substrate": "C[S+](CC[C@H](N)C(=O)O)C[C@H]1O[C@@H](n2cnc3c(N)ncnc32)[C@H](O)[C@@H]1O", "conditions": "pH 7.5, 50 °C, apparent", "kcat [s⁻¹]": "0.0035 ± 0.000333"}
{"Substance": "B3 (BshA S17A)", "substrate": "O=C(O)C[C@H](O)C(=O)O", "conditions": "pH 7.5, 21 °C, together with: UDP-GlcNAc 0–4 mM", "kcat [s⁻¹]": "2.5 ± 0.1"}
{"Substance": "B4 (UCK2)", "substrate": "O=c1ccn([C@@H]2O[C@H](CO)[C@@H](O)[C@H]2O)c(=O)[nH]1", "conditions": "pH 7.2, 25 °C, KCl 100 mM, together with: ATP 100–200 µM", "kcat [s⁻¹]": "5.2 ± 0.5"}
{"Substance": "B5 (enzyme R116A)", "substrate": "Nc1ncnc2c1ncn2[C@@H]1O[C@H](COP(=O)(O)OP(=O)(O)OP(=O)(O)O)[C@@H](O)[C@H]1O", "conditions": "pH 7, 45 °C", "kcat [s⁻¹]": "0.0733 ± 0.005"}
{"Substance": "ERAP1 (Homo sapiens, UniProt Q9NZ08)", "substrate": "CC(C)C[C@H](NC(=O)CNC(=O)[C@H](CCC(=O)O)NC(=O)[C@H](Cc1ccccc1)NC(=O)[C@H](CCCNC(=N)N)NC(=O)[C@H](CCCCN)NC(=O)[C@@H](N)Cc1ccc(O)cc1)C(=O)N[C@H](C(=O)N[C@@H](CCC(N)=O)C(=O)N[C@@H](CCCNC(=N)N)C(=O)O)[C@@H](C)O", "conditions": "25 °C", "kcat [s⁻¹]": "0.304 ± 0.052"}
{"Substance": "B6 (Mj-MAT W387F/Y233W)", "substrate": "CSCC[C@H](N)C(=O)O", "conditions": "55 °C, together with: ATP 2.5 mM, methionine 0.05-1 mM", "kcat [s⁻¹]": "7.24 ± 0.08"}
{"Substance": "B7 (MauG)", "substrate": "O=C1O[C@H]([C@@H](O)CO)C(O)=C1O", "conditions": "pH 7.5, 25 °C, together with: H2O2 100 µM", "kcat [s⁻¹]": "0.24 ± 0.01"}
{"Substance": "B8 (Mgst1 unactivated)", "substrate": "CC(=O)c1ccc(Cl)c([N+](=O)[O-])c1", "conditions": "pH 6.5, 5 °C, potassium phosphate 0.1 M, unactivated enzyme, together with: GSH 5 mM", "kcat [s⁻¹]": "0.016 ± 0.001"}
{"Substance": "B9", "substrate": "Nc1ncnc2c1ncn2[C@@H]1O[C@H](COP(=O)(O)OP(=O)(O)OP(=O)(O)O)[C@@H](O)[C@H]1O", "conditions": "pH 7.6, KCl 100 mM, together with: glutamine 10 mM, ornithine 10 mM", "kcat [s⁻¹]": "0.035 ± 0.002"}
{"Substance": "B10 (enzyme)", "substrate": "C[C@H]1[C@H](NC(=O)/C(=N\\OC(C)(C)C(=O)O)c2csc(N)n2)C(=O)N1S(=O)(=O)O", "conditions": "pH 7", "kcat [s⁻¹]": "0.51 ± 0.02"}
{"Substance": "pcpF (Sphingobium chlorophenolicum, UniProt Q8KN33)", "substrate": "N[C@@H](CS)C(=O)O", "conditions": "pH 6.5, together with: GS-TriCH, ascorbic acid 2 mM", "kcat [s⁻¹]": "0.37 ± 0.09"}
{"note": "Excerpt of the above:"}
{"Substance": "B6 (Mj-MAT W387F/Y233W)", "substrate": "CSCC[C@H](N)C(=O)O", "conditions": "55 °C, together with: ATP 2.5 mM, methionine 0.05-1 mM", "kcat [s⁻¹]": "7.24 ± 0.08"}
{"Substance": "B7 (MauG)", "substrate": "O=C1O[C@H]([C@@H](O)CO)C(O)=C1O", "conditions": "pH 7.5, 25 °C, together with: H2O2 100 µM", "kcat [s⁻¹]": "0.24 ± 0.01"}
